Assay results from different studies.
Protocols differ between the studies behind these lines. Values joined by “and” are separate records of one study, mostly repeats; a detail may differ. Numbers after ± are the reported error.

[123I]c1cncc(OC[C@@H]2CCN2)c1 — tissue/plasma ratio (SPECT; human, high plasma nicotine, Pons; intravenous; relative to: plasma): 17.8
Cc1ccc(Nc2nccc(N(C)c3ccc4c(C)n(C)nc4c3)n2)cc1S(N)(=O)=O — Cmin (patients, plasma; oral, 800 mg, 24 h, fasted, geometric mean, added: omeprazole): 22800 ng/mL
CCC1(c2ccccc2)NC(=O)N(Cc2ccccc2)C1=O (single isomer, unassigned; (+)) — inhibition (inhibitor, item: 11-hydroxy-THC; human liver microsomes, six donors; 5 µM, added: THC 2 µM, tienilic acid, CYP3cide): ≤ 17%
CC(C)c1nc(CN(C)C(=O)N[C@H](C(=O)N[C@@H](Cc2ccccc2)C[C@H](O)[C@H](Cc2ccccc2)NC(=O)OCc2cncs2)C(C)C)cs1 — brain uptake clearance Kin (in situ brain perfusion; CF-1 mouse, wild type, male; 1 µM, pH 7.4): 1.8 mL/100 g/min
CC1(C)S[C@@H]2[C@H](NC(=O)[C@H](C(=O)O)c3ccsc3)C(=O)N2[C@H]1C(=O)O — measured concentration (rat plasma; 2400 ng/mL, -20 °C to room temperature, three freeze-thaw cycles): 2439 ± 10 ng/mL
Cc1sc2c(c1C)C(c1ccc(Cl)cc1)=N[C@@H](CC(=O)OC(C)(C)C)c1nnc(C)n1-2 — recovery vs nominal (LC-MS; Ringer's solution; 50 ng/mL, time not given, glass vessel, low-bind vial): 61.1% and 69%
O=S(=O)(O)Oc1ccc(-c2cccc(Cl)c2)cc1Cl — dose fraction not recovered (Sprague-Dawley rat (male); iv, 575 µg/kg, 24 h): 96%
O=C(OC(C(F)(F)F)C(F)(F)F)N1CCC(Cn2ccc3cccnc32)CC1 — solubility (PBS; 20 h, pH 7.4, 20 °C): < 1 µg/mL
CN[C@@](C)(C[18F])C(=O)O — tissue uptake (SCID mouse U87 xenograft, kidney; 30 min, post injection): 11 ± 2.6 %ID/g
CSCC[C@@H]1NC(=O)[C@H](CC(=O)O)NC(=O)CNC(=O)[C@H](CCCNC(=N)N)NC(=O)[C@H](C)NC(=O)[C@H](CCC(=O)O)NC(=O)[C@H](CCCNC(=N)N)NC(=O)[C@@H]2CSSC[C@@H]3NC(=O)[C@H](CO)NC(=O)[C@H]([C@@H](C)O)NC(=O)[C@@H]4CCCN4C(=O)[C@H](C)NC(=O)[C@H](Cc4c[nH]c5ccccc45)NC(=O)[C@H](CC(=O)O)NC(=O)CNC(=O)[C@H](CCCNC(=N)N)NC(=O)CNC(=O)[C@H](CCC(N)=O)NC(=O)[C@@H]4CCCN4C(=O)[C@@H](NC(=O)CNC(=O)C(C)F)CSSC[C@H](NC(=O)CNC(=O)[C@H](C)NC(=O)[C@H](CC(C)C)NC(=O)[C@H](CSSC[C@@H](C(=O)NCC(N)=O)NC(=O)[C@H]([C@@H](C)O)NC(=O)[C@H](CCCNC(=N)N)NC(=O)[C@@H]4CCCN4C1=O)NC(=O)[C@H](CC(=O)O)NC(=O)[C@H](CO)NC(=O)[C@H](CC(=O)O)NC(=O)[C@H](CCC(N)=O)NC(=O)[C@H](CO)NC3=O)C(=O)N[C@@H](C(C)C)C(=O)N2 (stereo partly drawn) [fluorine-18 labelled] — tissue uptake (nude mouse, U-87 MG xenograft, spleen; intravenous, 2.5 h, added: cyclo(RGDyK) co-injected): 0.24 ± 0.05 %ID/g
CC[C@H](C)[C@H](NC(=O)[C@H](CCC(=O)O)NC(=O)[C@H](CCC(=O)O)NC(=O)[C@H](Cc1ccccc1)NC(=O)[C@H](CC(=O)O)NC(=O)CNC(=O)[C@H](CC(N)=O)NC(=O)CNC(=O)CNC(=O)CNC(=O)CNC(=O)[C@@H]1CCCN1C(=O)[C@H](CCCNC(=N)N)NC(=O)[C@@H]1CCCN1C(=O)[C@H](N)Cc1ccccc1)C(=O)N1CCC[C@H]1C(=O)N[C@@H](CCC(=O)O)C(=O)N[C@@H](CCC(=O)O)C(=O)N[C@@H](Cc1ccc(O)cc1)C(=O)N[C@@H](CC(C)C)C(=O)O — steady-state plasma concentration (PCI patients, plasma; intravenous, 0.75 mg/kg bolus then 1.75 mg/kg/h, 30 min): 2700 ± 500 nM
CC(C)C[C@@H]1NC(=O)[C@@H](NC(=O)CN)CSSC[C@@H]2NC(=O)[C@@H]3CSSC[C@@H](C(=O)N[C@@H](CC(N)=O)C(=O)N[C@@H](Cc4ccccc4)C(=O)N[C@@H](CO)C(=O)N[C@@H](Cc4ccccc4)C(N)=O)NC(=O)[C@H](CC(C)C)NC(=O)[C@H](CCCCN)NC(=O)[C@H](Cc4ccccc4)NC(=O)[C@H](CC(C)C)NC(=O)[C@H](CCCCN)NC(=O)[C@H](CO)NC(=O)[C@H](CSSC[C@H](NC(=O)[C@H](CCCCN)NC(=O)[C@H](Cc4c[nH]c5ccccc45)NC(=O)[C@H](Cc4c[nH]c5ccccc45)NC(=O)[C@H](Cc4ccccc4)NC(=O)[C@H](CCC(=O)O)NC1=O)C(=O)N[C@@H](CC(N)=O)C(=O)N1CCC[C@H]1C(=O)N[C@@H](CC(N)=O)C(=O)N[C@@H](CC(=O)O)C(=O)N[C@@H](CC(=O)O)C(=O)N[C@@H](CCCCN)C(=O)N3)NC(=O)[C@H](CCCCN)NC(=O)[C@H](CC(C)C)NC(=O)[C@H](CCCCN)NC(=O)[C@@H]1CCCN1C(=O)[C@H](CCCNC(=N)N)NC2=O — reduction of free concentration (ultrafiltration, HPLC; medium with 10% serum; 50 µM, 10 min; relative to: serum-free medium): ~20 fold
